# Experimental data pooled from the literature.
# ± marks the error that the study gave.
# gag-pol integrase: Gag-Pol polyprotein, integrase (gag-pol, Human immunodeficiency virus 1, UniProt P12497)
# Urease: Urease (Canavalia ensiformis, UniProt P07374)
# MMP2: 72 kDa type IV collagenase (MMP2, Homo sapiens, UniProt P08253)
Structure (SMILES),target,test,system,setting,IC50
COC(=O)C=CCCC(NC(=O)c1ccncc1C(=O)O)C(=O)NC(C(=O)N1CC(=O)CC1C(=O)NC(C(=O)NC(C(N)=O)C1CCCCC1)C1CCCCC1)C(C)(C)C (stereo not drawn),"TGM2 (Homo sapiens, UniProt P21980)","enzyme activity, inhibitor",,,0.445 µM
CSCC[C@H](NC(=O)[C@H](Cc1ccccc1)NC(=O)[C@H](Cc1c[nH]cn1)NC(=O)CNC(=O)[C@@H](NC(=O)[C@H](C)NC(=O)[C@H](Cc1c[nH]c2ccccc12)NC(=O)[C@H](CCC(N)=O)NC(=O)[C@@H]1CCCN1C(=O)[C@@H](NC(=O)[C@@H]1CCC(=O)N1)C(C)C)C(C)C)C(N)=O,"NMBR (Homo sapiens, UniProt P28336)","NMBR activity, cell-based",,,0.001 to 0.003 µM
O=C1c2c(ccc(O)c2O)CN1Cc1cccc(Cl)c1F,gag-pol integrase,"3'-processing, inhibitor, gel-based",,recombinant wild-type integrase,158 ± 22.3 µM
CCCC[C@H](NC(=O)[C@H](C)NC(=O)[C@H](C)NC(=O)[C@H](Cc1ccccc1)NC[C@H](CC(C)C)NC(=O)[C@@H](NC(=O)[C@@H](N)CCCNC(=N)N)C(C)C)C(=O)O,"Gag-Pol polyprotein, protease (gag-pol, Human immunodeficiency virus 1, UniProt P12497)","enzyme activity, inhibitor, FRET",NL4-3 wild type,,0.232 ± 0.03 µM
C=CCN1CCc2cccc3c2[C@H]1Cc1ccc(O)c(O)c1-3,"Carbamate kinase (Giardia intestinalis, UniProt A8BB85)","enzyme activity, ATP luminescence",,,3.66 µM
CSc1ccc2c(c1)c(CCN)c(C)n2Cc1ccccc1Cl,"Phosphatidylinositol 3,4,5-trisphosphate 5-phosphatase 1, Ptase-C2 domains (INPP5D, Homo sapiens, UniProt Q92835)","enzyme activity, inhibitor",,,138 µM
Cc1cc(F)ccc1S(=O)(=O)NC(C)C(N)=O (stereo not drawn),Urease,"enzyme activity, inhibitor, absorbance",,,7.83 µM
Nc1ncnc2c1ncn2[C@@H]1O[C@H](CSCCNC(=O)NCCc2ccccc2)[C@@H](O)[C@H]1O,"DNA (cytosine-5)-methyltransferase 3A, with DNMT3L (DNMT3A, Homo sapiens, UniProt Q9Y6K1)",inhibitor,,,> 50 µM
COC(=O)c1ccc2c(c1)NC(=O)/C2=C(\Nc1ccc(N(C)C(=O)CN2CCN(CCCCNC(=O)CCc3cn(CCCCN4C[C@@H]5C[C@H]4C(=O)N[C@@H](CC(C)C)C(=O)N[C@@H](CCCNC(=N)N)C(=O)NCC(=O)N[C@@H](CC(=O)O)C(=O)N[C@@H](CC(C)C)C(=O)N5)nn3)CC2)cc1)c1ccccc1,"KDR (Homo sapiens, UniProt P35968)","enzyme activity, inhibitor, radiometric",,,0.018 µM
CC[C@H](C)[C@H](NC(=O)[C@H](Cc1ccccc1)NC(=O)[C@@H]1CCNC(=O)NCCC[C@H](NC(=O)[C@H](CO)NC(=O)[C@H](CC(C)C)NC(=O)[C@H](CCCNC(=N)N)NC(=O)[C@H](CCSC)NC(=O)[C@H](C)N)C(=O)N[C@@H](Cc2ccccc2)C(=O)N[C@@H](Cc2ccccc2)C(=O)N[C@@H](CCCNC(=N)N)C(=O)N1)C(=O)N[C@@H](CC(C)C)C(=O)N[C@@H](CCC(N)=O)C(=O)N[C@@H](CCCNC(=N)N)C(=O)N[C@@H](CCCCN)C(=O)N[C@@H](CCCCN)C(=O)O,"histidine kinase ComD (Streptococcus pneumoniae serotype 2, UniProt A0A0H2ZM50)",,"Streptococcus pneumoniae cells, Streptococcus pneumoniae",,> 1 µM
O=C1c2ccccc2[Se](=O)N1c1ccccc1 (stereo not drawn),"HDAC10 (Homo sapiens, UniProt Q969S8)","enzyme activity, inhibitor, fluorescence",,,> 10 µM
CNC(=[Se])NC,"Urea transporter 2 (Rattus norvegicus, UniProt Q62668)","urea transport, inhibitor",MDCK expressing rat UT-A1,20 min,> 25000 µM
CN(C)CCCOc1ccc(C2Sc3ccccc3NC3=C2C(=O)c2ccccc23)cc1 (racemic),"Cytochrome b (MT-CYB, Homo sapiens, UniProt P00156)","enzyme activity, inhibitor",,,> 5 µM
CSCC[C@H](NC(=O)[C@@H](N)CCCNC(=N)N)C(=O)N[C@@H](Cc1c[nH]cn1)C(=O)N[C@@H](CC(N)=O)C(=O)N[C@@H](CC(=O)O)C(=O)N[C@H](C(=O)O)[C@@H](C)O,"APOBEC3G (Homo sapiens, UniProt Q9HC16)",,,,> 100 µM
CC(C)C[C@H](NC(=O)[C@H](CCCNC(=N)N)NC(=O)CNC(=O)[C@H](CCC(=O)O)NC(=O)[C@@H]1CCCN1C(=O)[C@H](Cc1c[nH]cn1)NC(=O)[C@@H](NC(=O)[C@@H](N)C(C)C)C(C)C)C(=O)O,"ACE (Homo sapiens, UniProt P12821)","enzyme activity, inhibitor, HPLC",,,1140 µM
CN(C)c1ccc(NC(=O)CCCCCNC(=O)CS)cc1,"HDAC1 (Homo sapiens, UniProt Q13547)","enzyme activity, inhibitor",,,5.38 µM
CC(C)[C@H](NC(=O)c1ccc(CNc2nc3c(c(=O)[nH]2)CCC3)cc1)C(=O)NC1COC1,MMP2,"enzyme activity, inhibitor",,,> 5 µM
Cc1cc(S(=O)(=O)Nc2ncccn2)c(F)cc1N(C)C1CCN([C@H](C)c2ccccc2)CC1,"SCN8A (Homo sapiens, UniProt Q9UQD0)","ion current, inhibitor, automated patch clamp",,"resting state, held at -120 mV",> 100 µM
CC[C@H](C)[C@H](NC(C)=O)C(=O)N[C@@H](C)C(=O)N[C@@H](CCC(=O)O)C(=O)N[C@@H](CCC(N)=O)C(=O)N[C@@H](CC(C)C)C(=O)N[C@@H](CCCNC(=N)N)C(=O)N[C@@H](CCCNC(=N)N)C(=O)N[C@@H](Cc1ccc(OS(=O)(=O)F)cc1)C(=O)NCC(=O)N[C@@H](CC(=O)O)C(=O)N[C@@H](CCCNC(=N)N)C(=O)N[C@@H](Cc1ccccc1)C(N)=O,"MCL1 (Homo sapiens, UniProt Q07820)","BIM BH3 peptide binding, inhibitor, DELFIA displacement",,2 h preincubation,> 100 µM
COc1c(OCCOCCOCCOCCOc2cccc(C(=O)C3CCN(CCc4ccc(F)cc4)CC3)c2OC)cccc1C(=O)C1CCN(CCc2ccc(F)cc2)CC1,"HTR2A (Homo sapiens, UniProt P28223)","phosphorylation in cells, antagonist",,,0.178 µM
CN(C)S(=O)(=O)c1cc(O)c(O)c2c1CN(Cc1ccc(F)c(Cl)c1)C2=O,gag-pol integrase,"strand transfer, inhibitor, gel-based",,recombinant wild-type integrase,0.077 ± 0.004 µM
CCCCCc1cc(O)c2c(c1)OC(C)(C)C1CCC(C(=O)OC3OC(C(=O)O)C(O)C(O)C3O)=CC21 (stereo not drawn),"Cytochrome P450 2D6 (CYP2D6, Homo sapiens, UniProt P10635)",inhibitor,,"30 min preincubation, added: NADPH",6.4 ± 2.5 µM
CC1C(=NNC(=O)c2ccncc2)C(C)C(c2ccc(Br)cc2)OC1c1ccc(Br)cc1 (stereo not drawn),"DNA gyrase (gyrA/gyrB, Escherichia coli, UniProt P0AES4+P0AES6)",,,,16.1 µM
CC[C@@H]1C(=O)N(C)c2cnc(Nc3ccc(C(=O)NCCCC[C@H](NC(=O)[C@@H](NC(=O)[C@H](CO)NC(=O)[C@H](Cc4cncn4CCCCCCCCc4ccccc4)NC(=O)[C@H](CC(C)C)NC(=O)[C@@H]4CCCN4C(C)=O)[C@@H](C)OP(=O)(O)O)C(N)=O)cc3OC)nc2N1C1CCCC1,"PLK2 (Homo sapiens, UniProt Q9NYY3)","enzyme activity, inhibitor",,,0.0072 µM
N=C(N)NCCC[C@@H]1NC(=O)[C@H](CCCCNC(=O)CC[C@H](NC(=O)CCOCCOCCOCCOCCNC(=O)CN2CCN(CC(=O)O)CCN(CC(=O)O)CCN(CC(=O)O)CC2)C(=O)NCCCC[C@@H]2NC(=O)[C@@H](Cc3ccccc3)NC(=O)[C@H](CC(=O)O)NC(=O)CNC(=O)[C@H](CCCNC(=N)N)NC2=O)NC(=O)[C@@H](Cc2ccccc2)NC(=O)[C@H](CC(=O)O)NC(=O)CNC1=O,"Integrin alpha-V/beta-3 (Homo sapiens, UniProt P05106+P06756)","ligand displacement, radioligand",,,0.005 µM
NCCCCCC(=O)NC(CCC(=O)N[C@H](CCCOP(=O)(O)NC(CCC(=O)O)C(=O)O)C(=O)O)C(=O)O (stereo partly drawn),"FOLH1 (Homo sapiens, UniProt Q04609)",,,,0.019 µM
CC(=O)CCC1C(=O)NC(C(C)C)C(=O)NC(Cc2cccc(O)c2)C(=O)N2CCCC(N2)C(=O)OC(C(C)=CC=CC(=O)N2CCCCO2)CC=CC=CC(O)C(C)C1O (stereo not drawn),"ABCB11 (Homo sapiens, UniProt O95342)","efflux transport, inhibitor",membrane vesicles,added: taurocholate 2 µM,29.3 µM
CN(C)CP(C)(=O)O,Urease,"enzyme activity, inhibitor, absorbance",,pH 7,14.4 µM
CC(C)C[C@@H]1NC(=O)[C@H](CCCNC(=N)N)NC(=O)[C@H](CCCCN)NC(=O)[C@H](CC(=O)O)NC(=O)[C@H](CCCCN)NC(=O)[C@@H](CO)NC1=O,MMP2,"enzyme activity, inhibitor, fluorescence",,,> 10 µM
COc1ccc(/C=N/NC(=O)COc2ccc(Sc3ccc(OCC(=O)N/N=C/c4ccc(OC)c(OC)c4)cc3)cc2)cc1OC,"Cholinesterase (BCHE, Equus caballus, UniProt P81908)","enzyme activity, inhibitor, Ellman",,,48.6 µM

# For quick reference, copied from above:
Structure (SMILES),target,test,system,setting,IC50
CC(C)C[C@H](NC(=O)[C@H](CCCNC(=N)N)NC(=O)CNC(=O)[C@H](CCC(=O)O)NC(=O)[C@@H]1CCCN1C(=O)[C@H](Cc1c[nH]cn1)NC(=O)[C@@H](NC(=O)[C@@H](N)C(C)C)C(C)C)C(=O)O,"ACE (Homo sapiens, UniProt P12821)","enzyme activity, inhibitor, HPLC",,,1140 µM
CCCC[C@H](NC(=O)[C@H](C)NC(=O)[C@H](C)NC(=O)[C@H](Cc1ccccc1)NC[C@H](CC(C)C)NC(=O)[C@@H](NC(=O)[C@@H](N)CCCNC(=N)N)C(C)C)C(=O)O,"Gag-Pol polyprotein, protease (gag-pol, Human immunodeficiency virus 1, UniProt P12497)","enzyme activity, inhibitor, FRET",NL4-3 wild type,,0.232 ± 0.03 µM
COc1c(OCCOCCOCCOCCOc2cccc(C(=O)C3CCN(CCc4ccc(F)cc4)CC3)c2OC)cccc1C(=O)C1CCN(CCc2ccc(F)cc2)CC1,"HTR2A (Homo sapiens, UniProt P28223)","phosphorylation in cells, antagonist",,,0.178 µM
